# Measured values gathered from unrelated publications.
# Compare with care: the assays were run in different laboratories. ± marks the error that the study gave.
# Oprd1: Delta-type opioid receptor (Oprd1, Mus musculus, UniProt P32300)
# SIGMAR1: Sigma non-opioid intracellular receptor 1 (SIGMAR1, Cavia porcellus, UniProt Q60492)
SMILES,target,assay,system,conditions,Ki
Nc1nc2c(ncn2[C@H]2C[C@H](O)[C@@H](COP(=O)(O)NP(=O)(O)OP(=O)(O)O)O2)c(=O)[nH]1,"SAMHD1 (Homo sapiens, UniProt Q9Y3Z3)","enzyme activity, inhibitor",,added: dTTP 100 µM,0.031 ± 0.0023 µM
Oc1ccc2c(c1O)C[C@@H](c1ccccc1)[C@@H]1CCNC[C@@H]21,other brain receptors of panel,"binding, PDSP radioligand screen",,,> 1 µM
CN(C(=O)/C=C/c1ccoc1)[C@@H]1CC[C@@]2(O)[C@H]3Cc4cccc5c4[C@@]2(CCN3CC2CC2)[C@H]1O5,Oprd1,"binding, radioligand displacement",,added: [3H]diprenorphine,1 ± 0.19 µM
CCC[C@]1(C(=O)O)C[C@H]1[C@H](N)C(=O)O.Cl,"kainate receptor, rat",[3H]kainate displacement,cortical synaptosomes,,21 µM
CSC[C@H]1O[C@@H](n2cnc3c2N=CNC[C@H]3O)C[C@@H]1O,"MTA/SAH deaminase (Pseudomonas aeruginosa, UniProt Q9HZ64)",inhibitor,,"pH 7.4, 25 °C, added: MTA 100 µM",8e-06 ± 4e-07 µM
CN(C)CCN(C)CCc1ccc(Cl)c(Cl)c1,SIGMAR1,"ligand displacement, radioligand",,,0.00313 µM
CCCN(CCC1(O)CC(NS(=O)(=O)c2ccccc2)C1)[C@H]1CCc2nc(N)sc2C1 (stereo in doubt),"dopamine D1-like receptor, rat",radioligand binding,rat striatal membranes,added: [3H]SCH23390,57 ± 2.83 µM
CCCC[C@H](NC=O)C(=O)N[C@@H](CC(C)C)C(=O)N[C@@H](Cc1ccccc1)C(=O)O,"FPR1 (Homo sapiens, UniProt P21462, R190W)","binding, inhibitor",,,0.16 ± 0.025 µM
CCCN(CCC1(O)CC(NS(=O)(=O)c2ccc(F)c(Cl)c2)C1)[C@H]1CCc2nc(N)sc2C1 (stereo in doubt),"Drd3 (Rattus norvegicus, UniProt P19020)","ligand displacement, radioligand",,cell membranes,0.0023 µM
NCCCC[C@H](NC(=O)[C@H](Cc1c[nH]c2ccccc12)NC(=O)[C@H](CCCCN)NC(=O)CNC(=O)CCC(=O)N/N=C/c1ccc(/C=N/NC(=O)CCC(=O)NCC(=O)N[C@@H](CCCCN)C(=O)N[C@@H](Cc2c[nH]c3ccccc23)C(=O)N[C@@H](CCCCN)C(N)=O)cc1)C(N)=O,"Tryptase beta-2 (TPSB2, Homo sapiens, UniProt P20231)",non-competitive inhibitor,,,0.392 ± 0.0244 µM
NC[C@H]1C[C@@H](C23CC4CC(CC(C4)C2)C3)Cc2c1ccc(O)c2O (relative stereo),"D(1A) dopamine receptor (Sus scrofa, UniProt P50130)","binding, radioligand competition binding",porcine striatal homogenate,added: 1 nM [3H]SCH-23390,0.22 ± 0.036 µM
Cc1ccc2c(c1)C1CN(C)CCC1N2C(=O)CSc1nnnn1-c1ccc(Cl)cc1 (centres unmarked),"Tmem97 (Mus musculus, UniProt Q8VD00)","ligand displacement, radioligand",,cell membranes,1.26 µM
C[C@H]1CN(C[C@H]2Cc3ccccc3CN2)CC[C@@]1(C)c1cccc(O)c1,"Nociceptin receptor (OPRL1, Homo sapiens, UniProt P41146)","ligand displacement, radioligand",,,0.0377 µM
CCCCN1C(=O)C(C=CC=CC=C2C(=O)N(c3ccc(S(=O)(=O)O)cc3)N=C2C)C(=O)N(CCCC)C1=O,"SLC4A1 (Homo sapiens, UniProt P02730)","chloride exchange, 36Cl flux, refers to: outward-facing unloaded transporter",,"0 °C, Dixon plot, equilibrium binding",0.0039 ± 0.0008 µM
Nc1nc(Cl)nc2c1ncn2[C@H]1C[C@H](O)[C@@H](CO)O1,"ADORA2A (Homo sapiens, UniProt P29274)","ligand displacement, radioligand",,cell membranes,15.1 µM
CCCCC[C@H](O)/C=C/[C@H]1CCC(=O)[C@@H]1CCCCCCC(=O)O,"Ptger4 (Rattus norvegicus, UniProt P43114)","ligand displacement, radioligand",,,0.00021 µM
CCNC(=O)[C@H]1O[C@@H](n2cnc3c(N)nc(NCCc4ccc(CCC(=O)NCCN)cc4)nc32)[C@H](O)[C@@H]1O,"ADORA3 (Homo sapiens, UniProt P0DMS8)","ligand displacement, radioligand",,cell membranes,0.02 µM
CONc1ccn([C@@H]2O[C@H](COP(=O)(O)OP(=O)(O)OP(=O)(O)OC[C@H]3O[C@@H](n4ccc(=O)[nH]c4=O)[C@@H](O)[C@H]3O)[C@H](O)[C@@H]2O)c(=O)n1,"P2Y purinoceptor 14 (P2RY14, Homo sapiens, UniProt Q15391)",ligand displacement,,,5.18 µM
Nc1cc(C(=O)O)cc([C@H]2CCN[C@@H]2C(=O)O)c1 (racemic),"Glutamate receptor ionotropic, kainate 1 (Rattus norvegicus, UniProt P22756)","ligand displacement, radioligand",,cell membranes,32.7 µM
Cc1cc(N(C)CCN(C)C)cc(C)c1OCC(=O)N[C@@H](Cc1ccccc1)[C@H](O)C(=O)N1CSC(C)(C)[C@H]1C(=O)N[C@H]1c2ccccc2C[C@H]1O,"Plasmepsin I (PMI, Plasmodium falciparum, UniProt P39898)","enzyme activity, inhibitor, fluorescence",,pH 5,0.0126 µM
O=C(/C=C/c1ccoc1)N[C@@H]1CC[C@@]2(O)[C@H]3Cc4ccc(O)c5c4[C@@]2(CCN3CC2CC2)[C@H]1O5,Oprd1,"binding, radioligand displacement",,added: [3H]diprenorphine,0.00474 ± 0.00085 µM
CCC(=O)C(=O)O,"putA, PRODH domain (Escherichia coli, UniProt P09546)",competitive inhibitor,,"pH 7.5, room temperature, added: L-proline",1800 ± 100 µM
c1ccc(CCN2CCCCC2)cc1,"beta adrenergic receptor, rat",binding,rat cerebral cortex,added: [3H]dihydroalprenolol 2 nM,> 10 µM
CC(C)c1ccc(O)c(=O)c(O)c1,"Gag-Pol polyprotein, reverse transcriptase (gag-pol, Human immunodeficiency virus 1, UniProt P03366)","enzyme activity, inhibitor, FRET",,,0.14 µM
COP(=O)(O)C(C)=O,"dxs (Escherichia coli, UniProt P77488)","enzyme activity, inhibitor",,,3.24 µM
NC(=O)CCC(N)C(=O)O (stereo in doubt),"anandamide membrane transporter, mouse","[3H]anandamide uptake, non-competitive inhibitor",mouse brain synaptosomes,,0.48 ± 0.05 µM
c1ccc2sc(C3(N4CCCC4)CCCCC3)cc2c1,"TPR (Trypanosoma brucei brucei, UniProt P39051)","competitive inhibitor, DTNB-coupled",Trypanosoma brucei,"pH 7.4, added: trypanothione disulfide",0.26 ± 0.01 µM
C=C(C)[C@H](CC=C(C)C)Cc1c(O)cc(OC)c2c1O[C@H](c1ccc(O)cc1O)CC2=O,"MAOB (Homo sapiens, UniProt P27338)","enzyme activity, inhibitor",,,12.3 µM
C[C@]12CC[C@H](O)C[C@@]1(O)CC[C@@H]1[C@@H]2CC[C@]2(C)[C@@H](c3ccc(=O)oc3)C[C@H]3O[C@]132,"ATP1A1 (Homo sapiens, UniProt P05023)",enzyme activity,purified human kidney enzyme,1% DMSO,1.04 ± 0.06 µM
CC[C@H](C)CN(C[C@@H](O)[C@H](Cc1ccccc1)NC(=O)[C@@H](NC(C)=O)[C@@H](C)CC)S(=O)(=O)c1ccc2ncsc2c1,"Gag-Pol polyprotein, protease (Human immunodeficiency virus type 1 group M subtype B, UniProt P03369, G538V/I544V/L500I/V572A)",,,,0.000376 ± 0.000168 µM
CCCCCCCCCCCCC/C=C/[C@H](O)[C@@H](N)CO,SIGMAR1,"ligand displacement, radioligand",,cell membranes,8.3 µM
c1ccc(CCN2CCCCC2)cc1,"Tmem97 (Rattus norvegicus, UniProt Q5U3Y7)",radioligand binding,rat liver membranes,"added: [3H]DTG 5 nM, (+)-pentazocine 300 nM",0.0943 ± 0.0031 µM
CC1(C)Oc2cc(CNC3C4CC5CC(C4)CC3C5)cc(O)c2[C@@H]2C[C@@H](O)CC[C@H]21 (some centres unmarked),"Cnr1 (Rattus norvegicus, UniProt P20272)",,,,no binding
O=C(NC(=S)NCCCc1c[nH]cn1)c1ccccc1,"HRH4 (Homo sapiens, UniProt Q9H3N8)","ligand displacement, radioligand",,cell membranes,0.151 µM
CCCCCCCC(=O)O[C@H]1/C(=C/C(=O)OC)C[C@H]2C[C@H]([C@@H](C)O)OC(=O)CCCC(=O)OCC(C)(C)[C@]1(O)O2,"PRKCD (Homo sapiens, UniProt Q05655)","ligand displacement, radioligand",,,0.241 µM

# Excerpt of the above:
SMILES,target,assay,system,conditions,Ki
CC[C@H](C)CN(C[C@@H](O)[C@H](Cc1ccccc1)NC(=O)[C@@H](NC(C)=O)[C@@H](C)CC)S(=O)(=O)c1ccc2ncsc2c1,"Gag-Pol polyprotein, protease (Human immunodeficiency virus type 1 group M subtype B, UniProt P03369, G538V/I544V/L500I/V572A)",,,,0.000376 ± 0.000168 µM
NCCCC[C@H](NC(=O)[C@H](Cc1c[nH]c2ccccc12)NC(=O)[C@H](CCCCN)NC(=O)CNC(=O)CCC(=O)N/N=C/c1ccc(/C=N/NC(=O)CCC(=O)NCC(=O)N[C@@H](CCCCN)C(=O)N[C@@H](Cc2c[nH]c3ccccc23)C(=O)N[C@@H](CCCCN)C(N)=O)cc1)C(N)=O,"Tryptase beta-2 (TPSB2, Homo sapiens, UniProt P20231)",non-competitive inhibitor,,,0.392 ± 0.0244 µM
Nc1nc2c(ncn2[C@H]2C[C@H](O)[C@@H](COP(=O)(O)NP(=O)(O)OP(=O)(O)O)O2)c(=O)[nH]1,"SAMHD1 (Homo sapiens, UniProt Q9Y3Z3)","enzyme activity, inhibitor",,added: dTTP 100 µM,0.031 ± 0.0023 µM
C[C@]12CC[C@H](O)C[C@@]1(O)CC[C@@H]1[C@@H]2CC[C@]2(C)[C@@H](c3ccc(=O)oc3)C[C@H]3O[C@]132,"ATP1A1 (Homo sapiens, UniProt P05023)",enzyme activity,purified human kidney enzyme,1% DMSO,1.04 ± 0.06 µM
CCC[C@]1(C(=O)O)C[C@H]1[C@H](N)C(=O)O.Cl,"kainate receptor, rat",[3H]kainate displacement,cortical synaptosomes,,21 µM
